Published values pooled from the literature.
Each line is one published result; not all experiments were run side by side. ± marks the error that the study gave.
Chain of UniProt P21333 (whole entry, looked up): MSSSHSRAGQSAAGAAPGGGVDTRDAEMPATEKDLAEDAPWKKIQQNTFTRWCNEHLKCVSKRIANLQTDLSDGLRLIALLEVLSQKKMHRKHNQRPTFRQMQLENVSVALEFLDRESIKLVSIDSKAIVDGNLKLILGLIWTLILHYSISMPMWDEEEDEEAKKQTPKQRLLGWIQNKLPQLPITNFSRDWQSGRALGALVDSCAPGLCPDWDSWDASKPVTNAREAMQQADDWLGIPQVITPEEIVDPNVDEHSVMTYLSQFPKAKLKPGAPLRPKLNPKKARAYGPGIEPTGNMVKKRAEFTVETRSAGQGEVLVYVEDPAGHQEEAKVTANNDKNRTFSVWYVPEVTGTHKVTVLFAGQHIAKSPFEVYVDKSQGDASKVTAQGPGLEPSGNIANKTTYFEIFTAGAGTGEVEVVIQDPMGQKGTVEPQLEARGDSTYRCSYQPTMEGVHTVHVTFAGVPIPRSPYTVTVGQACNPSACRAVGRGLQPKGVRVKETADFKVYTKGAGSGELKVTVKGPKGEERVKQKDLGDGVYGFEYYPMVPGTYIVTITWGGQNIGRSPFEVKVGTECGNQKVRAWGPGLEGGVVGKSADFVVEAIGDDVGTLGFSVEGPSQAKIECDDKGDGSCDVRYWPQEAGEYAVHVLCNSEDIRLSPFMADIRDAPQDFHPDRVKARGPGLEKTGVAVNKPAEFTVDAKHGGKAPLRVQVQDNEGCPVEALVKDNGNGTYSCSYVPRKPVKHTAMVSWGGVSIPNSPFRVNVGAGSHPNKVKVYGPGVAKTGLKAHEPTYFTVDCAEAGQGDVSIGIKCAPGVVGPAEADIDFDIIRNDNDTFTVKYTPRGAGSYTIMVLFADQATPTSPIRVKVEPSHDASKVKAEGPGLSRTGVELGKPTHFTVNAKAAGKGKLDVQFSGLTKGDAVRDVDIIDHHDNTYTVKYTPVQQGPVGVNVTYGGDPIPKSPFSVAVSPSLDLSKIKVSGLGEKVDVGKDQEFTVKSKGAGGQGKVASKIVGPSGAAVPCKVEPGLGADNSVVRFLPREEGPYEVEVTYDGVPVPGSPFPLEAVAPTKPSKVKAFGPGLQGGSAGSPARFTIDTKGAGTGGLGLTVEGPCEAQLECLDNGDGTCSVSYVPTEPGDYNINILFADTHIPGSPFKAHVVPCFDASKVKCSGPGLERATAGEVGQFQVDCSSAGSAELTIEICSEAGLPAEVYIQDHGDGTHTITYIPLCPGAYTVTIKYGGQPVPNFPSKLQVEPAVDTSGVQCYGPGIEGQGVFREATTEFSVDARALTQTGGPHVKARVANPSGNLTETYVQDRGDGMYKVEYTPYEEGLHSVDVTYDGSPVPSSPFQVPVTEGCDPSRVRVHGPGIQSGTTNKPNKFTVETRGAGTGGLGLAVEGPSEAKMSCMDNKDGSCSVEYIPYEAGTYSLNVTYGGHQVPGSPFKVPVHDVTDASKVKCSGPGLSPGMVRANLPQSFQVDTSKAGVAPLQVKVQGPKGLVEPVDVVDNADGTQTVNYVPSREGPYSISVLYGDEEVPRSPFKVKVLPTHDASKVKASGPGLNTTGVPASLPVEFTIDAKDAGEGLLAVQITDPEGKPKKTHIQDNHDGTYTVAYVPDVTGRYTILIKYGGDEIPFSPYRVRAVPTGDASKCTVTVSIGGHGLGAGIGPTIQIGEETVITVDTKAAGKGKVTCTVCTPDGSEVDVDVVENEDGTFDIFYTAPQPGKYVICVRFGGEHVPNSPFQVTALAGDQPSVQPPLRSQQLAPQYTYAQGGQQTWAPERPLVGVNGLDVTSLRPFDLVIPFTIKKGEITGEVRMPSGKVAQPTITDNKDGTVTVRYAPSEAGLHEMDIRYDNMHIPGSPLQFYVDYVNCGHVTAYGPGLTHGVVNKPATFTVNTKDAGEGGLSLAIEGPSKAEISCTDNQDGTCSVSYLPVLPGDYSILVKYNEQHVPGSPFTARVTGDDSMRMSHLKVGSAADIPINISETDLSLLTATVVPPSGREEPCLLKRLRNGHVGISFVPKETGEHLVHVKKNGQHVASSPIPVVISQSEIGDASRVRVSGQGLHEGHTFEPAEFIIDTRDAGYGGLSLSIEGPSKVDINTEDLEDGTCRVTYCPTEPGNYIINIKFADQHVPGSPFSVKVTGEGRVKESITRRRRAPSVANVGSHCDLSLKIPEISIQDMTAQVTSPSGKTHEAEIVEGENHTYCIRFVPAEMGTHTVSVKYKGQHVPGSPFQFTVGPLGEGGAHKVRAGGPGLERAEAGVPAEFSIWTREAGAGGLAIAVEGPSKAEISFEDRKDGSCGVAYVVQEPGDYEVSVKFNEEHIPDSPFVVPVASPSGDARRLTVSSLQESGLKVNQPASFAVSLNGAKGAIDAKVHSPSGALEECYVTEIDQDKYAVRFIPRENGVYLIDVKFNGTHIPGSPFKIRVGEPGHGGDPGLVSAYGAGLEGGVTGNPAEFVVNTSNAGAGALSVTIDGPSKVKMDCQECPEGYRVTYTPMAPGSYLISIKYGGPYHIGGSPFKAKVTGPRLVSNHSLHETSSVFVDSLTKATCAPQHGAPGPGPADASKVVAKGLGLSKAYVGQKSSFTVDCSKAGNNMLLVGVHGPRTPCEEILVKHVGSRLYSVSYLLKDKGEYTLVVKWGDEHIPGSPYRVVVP

| SMILES | target or system | assay | system | setting | how to read | measurement | value |
| --- | --- | --- | --- | --- | --- | --- | --- |
| O=S(=O)(Nc1ccccc1)c1ccc(NC(=S)Nc2ccccc2)cc1 | – | refers to: RDW | female mouse, blood | oral, 5 mg/kg daily, 14 days | – | blood cell fraction | 16.8% |
| COc1ncnn2ccc(-c3cnc4nc(C)n(Cc5nnc([C@@H](C)F)o5)c4c3)c12 | – | – | human patients | oral, dose not given, all-grade adverse drug reaction | – | incidence of Dysgeusia | 14.3% |
| O=C(c1ccc(F)c(F)c1Nc1ccc(I)cc1F)N1CC(O)([C@@H]2CCCCN2)C1 | – | – | human patients | oral, 1 mg/kg, dose expansion | – | treatment-related adverse events | 92% |
| COc1cc2c(Oc3ccc4[nH]c(C)cc4c3F)ccnc2cc1OCC1(N)CC1 | – | – | paediatric recurrent refractory sarcoma | 10 mg | – | grade 3 Neutropenia | 0% |
| C[C@H]1CN(c2n[nH]c3nc(N[C@H]4CC[C@H](NS(=O)(=O)CCC(F)(F)F)CC4)ncc23)CCO1 | Filamin-A (Homo sapiens, UniProt P21333) | competitor, Kinobeads competition | human cell extract | 0.8 µM | relative to: vehicle | relative abundance | 1.44 |
| CC(C)CC(=O)OC[C@H]1O[C@@](C#N)(c2ccc3c(N)ncnn23)[C@H](O)[C@@H]1O | ABCB1 (Homo sapiens, UniProt P08183) | – | Caco-2 | 90 µM, added: zosuquidar 25 µM | – | Papp B to A | 0.667 ×10⁻⁶ cm/s |
| Cc1cc(C)c(CNC(=O)c2cc(Cl)c3c(c2C)O[C@@](C)([C@H]2CC[C@H](N(C)C)CC2)O3)c(=O)[nH]1 | – | – | human, relapsed/refractory NHL | concentration not given, all TEAEs, grade 5 | – | Nasopharyngitis incidence | 0% |
| CC(C)C[C@@H]1NC(=O)[C@H](CC(C)C)NC(=O)[C@H](Cc2c[nH]c3ccccc23)NC(=O)[C@H](CO)NC(=O)[C@H](Cc2c[nH]c3ccccc23)NC(=O)[C@@H]2CCCN2C(=O)[C@H](CC(C)C)NC(=O)[C@H](Cc2c[nH]cn2)NC(=O)[C@@H]2CCCN2C(=O)[C@H](CC(N)=O)NC(=O)[C@H](C)NC(=O)[C@H](Cc2ccc(O)cc2)NC(=O)[C@H](CS)NC(=O)[C@H](CCCCNC(=O)CN2CCN(CC(=O)O)CCN(CC(=O)O)CCN(CC(=O)O)CC2)NC1=O [lutetium-177 labelled] | – | – | Balb/c mouse, female, 4T1 tumour, lung | intravenous, 3.7 MBq, 1 h | – | tissue uptake | 0.14 ± 0.02 %ID |
| C[C@H]1CN(C(=O)CC#N)[C@]12CCN(c1ncnc3[nH]ccc13)C2 | – | – | minipig, female | dermal, 12 mg/kg repeated, 1 months | – | Cmax at NOAEL | 1.4 ng/mL |
| CC[C@H](C)[C@H](NC(=O)[C@H](Cc1ccccc1)NC(=O)[C@H](CCC(=O)O)NC(=O)[C@H](CCCNC(=N)N)NC(=O)[C@H](C)NC(=O)[C@H](C)NC(=O)[C@H](CCC(N)=O)NC(=O)[C@H](CCC(=O)O)NC(=O)[C@H](CCC(=O)O)NC(=O)[C@H](CC(C)C)NC(=O)[C@H](Cc1ccc(O)cc1)NC(=O)[C@H](CO)NC(=O)[C@H](CO)NC(=O)[C@H](CCCCNc1c(NCCCCCN(O)C(=O)CCC(=O)NCCCCCN(O)C(=O)CCC(=O)NCCCCCN(O)C(C)=O)c(=O)c1=O)NC(=O)[C@H](CC(=O)O)NC(=O)[C@H](CO)NC(=O)[C@@H](NC(=O)[C@H](Cc1ccccc1)NC(=O)[C@@H](NC(=O)CNC(=O)[C@H](CCC(=O)O)NC(=O)[C@H](C)NC(=O)CCc1cnc[nH]1)[C@@H](C)O)[C@@H](C)O)C(=O)N[C@@H](C)C(=O)N[C@@H](Cc1c[nH]c2ccccc12)C(=O)N[C@@H](CC(C)C)C(=O)N[C@H](C(=O)N[C@@H](CCCCNc1c(NCCCCCN(O)C(=O)CCC(=O)NCCCCCN(O)C(=O)CCC(=O)NCCCCCN(O)C(C)=O)c(=O)c1=O)C(=O)NCC(=O)N[C@@H](CCCNC(=N)N)C(=O)N[C@@H](CCCCNC(=O)COCCOCCNC(=O)COCCOCCNC(=O)CC[C@H](NC(=O)CCCCCCCCCCCCCCCCC(=O)O)C(=O)O)C(=O)O)C(C)C | GLP1R (Homo sapiens, UniProt P43220) | cAMP reporter gene, agonist, CRE luciferase | BHK | without Zr, 1% HSA | – | EC50 | 3 nM |
| O=C1Nc2cc3[nH]nc(-c4ccncc4)c3cc2CN1Cc1ccccc1 | – | CTCAE v4.03 | advanced solid tumour patients | intravenous, 6.4 mg/kg | – | patients with diarrhoea | 11% |
| CO[C@H]1C[C@@H]2CC[C@@H](C)[C@@](O)(O2)C(=O)C(=O)N2CCCC[C@H]2C(=O)O[C@H]([C@H](C)C[C@@H]2CC[C@@H](OC(=O)NCCOCCOCCOCCOCCOCCOCCOCCOCCC(=O)N3CCc4cc(Cn5nc(-c6ccc7oc(N)nc7c6)c6c(N)ncnc65)ccc4C3)[C@H](OC)C2)C[C@@H](O)[C@H](C)/C=C(\C)[C@@H](O)[C@@H](OC)C(=O)[C@H](C)C[C@H](C)/C=C/C=C/C=C/1C | – | phase 1 dose escalation | advanced solid tumour patients | intravenous, 10 mg weekly, grade ≥3 | – | any TRAE incidence | 37.5% |
| CN1CC[C@@H](c2c(O)cc(O)c3c(=O)cc(-c4ccc(C(F)(F)F)cc4Cl)oc23)[C@@H]1CO | – | refers to: Anemia | relapsed or refractory haematological malignancies | oral, dose not given, grade 3 to 4 | – | adverse event incidence | 17.5% |

Some of these lines once more:
| SMILES | target or system | assay | system | setting | how to read | measurement | value |
| --- | --- | --- | --- | --- | --- | --- | --- |
| CN1CC[C@@H](c2c(O)cc(O)c3c(=O)cc(-c4ccc(C(F)(F)F)cc4Cl)oc23)[C@@H]1CO | – | refers to: Anemia | relapsed or refractory haematological malignancies | oral, dose not given, grade 3 to 4 | – | adverse event incidence | 17.5% |
